# Results gathered from unrelated publications.
# Each line is one published result; not all experiments were run side by side. Numbers after ± are the reported error.
# RPS6KA4 C-terminal kinase domain: Ribosomal protein S6 kinase alpha-4, C-terminal kinase domain (RPS6KA4, Homo sapiens, UniProt O75676)
# UniProt O75676, sequence (whole entry, looked up): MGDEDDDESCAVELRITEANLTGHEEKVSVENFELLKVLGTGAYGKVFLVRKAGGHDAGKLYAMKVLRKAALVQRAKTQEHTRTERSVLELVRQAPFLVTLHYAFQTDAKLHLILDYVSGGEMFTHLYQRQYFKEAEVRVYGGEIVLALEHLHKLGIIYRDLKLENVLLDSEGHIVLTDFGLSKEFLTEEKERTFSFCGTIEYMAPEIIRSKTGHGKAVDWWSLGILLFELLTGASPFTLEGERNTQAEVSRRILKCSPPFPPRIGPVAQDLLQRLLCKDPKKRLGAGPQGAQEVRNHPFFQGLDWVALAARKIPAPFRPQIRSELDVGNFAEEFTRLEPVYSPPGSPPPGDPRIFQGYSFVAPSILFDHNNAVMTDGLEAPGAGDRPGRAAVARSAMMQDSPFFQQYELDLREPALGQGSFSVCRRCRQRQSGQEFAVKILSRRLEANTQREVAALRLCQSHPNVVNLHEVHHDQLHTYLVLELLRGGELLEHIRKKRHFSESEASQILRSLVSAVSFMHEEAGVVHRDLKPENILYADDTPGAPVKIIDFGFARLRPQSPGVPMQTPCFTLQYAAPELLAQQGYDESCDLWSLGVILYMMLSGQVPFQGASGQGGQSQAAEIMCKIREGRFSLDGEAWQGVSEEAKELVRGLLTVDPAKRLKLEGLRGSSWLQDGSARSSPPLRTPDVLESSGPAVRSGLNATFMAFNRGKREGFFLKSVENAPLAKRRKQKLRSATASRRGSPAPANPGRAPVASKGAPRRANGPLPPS
# RPS6KA4: Ribosomal protein S6 kinase alpha-4 (RPS6KA4, Homo sapiens, UniProt O75676)
Structure (SMILES),target,test,conditions,scale,endpoint,result
COc1cc(N2CCN(C)CC2)ccc1Nc1nc(N)n(C(=O)NCc2ccccc2S(=O)(=O)C(C)C)n1,RPS6KA4 C-terminal kinase domain,enzyme activity,10 µM,relative to: control,remaining activity,1.9%
C=CC(=O)N1CCC([C@@H]2CCNc3c(C(N)=O)c(-c4ccc(Oc5ccccc5)cc4)nn32)CC1,RPS6KA4,"kinase activity, inhibitor, HotSpot radiometric","100 nM, with: ATP 10 µM",,remaining activity,94%
CCOc1cc(N2CCN(C)CC2)ccc1Nc1nc(N)n(C(=O)NCc2ccccc2S(=O)(=O)C(C)C)n1,RPS6KA4 C-terminal kinase domain,enzyme activity,10 µM,relative to: control,remaining activity,7.2%
C=CC(=O)N1CCC(COCC(=O)N2CCN(c3nc(-c4cnc(N)nc4C(F)F)nc(N4CCOC[C@@H]4C)n3)CC2)CC1,RPS6KA4 C-terminal kinase domain,KINOMEscan,1 µM,,remaining binding,100%
CNc1ncc2c(/C=C/C(=O)N3CCC(OC)CC3)nn(Cc3cccc(C(F)(F)F)c3)c2n1,RPS6KA4,"kinase activity, inhibitor",1 µM,relative to: untreated control,remaining activity,86%
COc1cc(-c2cncc3c2CN(C)Cc2cc(N4CCNCC4)ccc2-3)cc(OC)c1OC,RPS6KA4,kinase activity,"1 µM, human enzyme, with: ATP 10 µM",relative to: DMSO control,remaining activity,115%
Cc1cc(Nc2cc(N3CCN(C)CC3)nc(Sc3ccc(NC(=O)C4CC4)cc3)n2)[nH]n1,RPS6KA4,"kinase activity, KinaseProfiler","0.03 µM, species human",relative to: control,remaining activity,104%
COc1ccc(F)cc1C(=O)NCc1ccc(-c2nn([C@@H](C)C(F)(F)F)c(N)c2C(N)=O)cc1,RPS6KA4,"kinase activity, inhibitor, HotSpot radiometric","100 nM, with: ATP 10 µM",,remaining activity,77.7 ± 0.1%
COc1cc(N2CCN(C)CC2)ccc1Nc1nc(N)n(C(=S)NCc2c(Cl)cccc2Cl)n1,RPS6KA4 C-terminal kinase domain,enzyme activity,10 µM,relative to: control,remaining activity,0.1%
CC#CC(=O)N1CCC[C@H]1c1nc(-c2ccc(C(=O)Nc3ccccn3)cc2)c2c(N)nccn12,RPS6KA4,"kinase activity, inhibitor, HotSpot radiometric","100 nM, with: ATP 10 µM",,remaining activity,95 ± 1.3%
COc1cc(F)ccc1-c1ncnc(Nc2cccc(C[S@](C)(=N)=O)c2)n1,RPS6KA4,kinase activity,"10 µM, with: 10 µM ATP",,remaining activity,95%

# A few entries again:
Structure (SMILES),target,test,conditions,scale,endpoint,result
COc1cc(N2CCN(C)CC2)ccc1Nc1nc(N)n(C(=S)NCc2c(Cl)cccc2Cl)n1,RPS6KA4 C-terminal kinase domain,enzyme activity,10 µM,relative to: control,remaining activity,0.1%
